# Assay results of several laboratories.
# Every numbered part comes from another study and shows a few of its results, in no order. Changes are numbered by the printed parent chain.

# Study 1
# Target: Interferon regulatory factor 5, full length, phosphomimetic (IRF5, Homo sapiens, UniProt Q13568-2, residues 1-514, S451D/S453D/S456D/S462D)
# Method: protein-binding microarray
# Form: double-stranded DNA, one strand shown
# Medium: in vitro
# Concentration: 940 nM top
# Notes: 60-bp whole probe
# With: salmon DNA 0.4 mg/ml
# Relative to: random background probes
# Reading: higher = stronger binding
# Shared flanks, not repeated: GCCTAGCAC … GTCTTGATTCGCTTGACGCTGCTG
Sequence,fitted relative affinity [z-score]
TTAGGTATCCTTTCCCTTTAGTGCTAG,0.576
GACGGTATCGACGCTGGGGACGTGCTA,3.19
TATTTTATATGCTATGTACTGGTGCTA,0.146
TTAGATATCAGTTTCGAATAGTGCTAG,3.66
TTAGGTAGCGACTATCGGTTAGTGCTA,0.534
ACCTAATTCACTATTACCAAGTGCTAG,0.653
TCAATTTTGTGTTTTCAACTGTGCTAG,0.613
TTAGGTCTCCTGTTCCTTTAGTGCTAG,0.149
GACAGTTTCGACACTGGGGACGTGCTA,8.86
TGGAAACTCGTATGTGACCTTGTGCTA,-0.188
GTTTGTATATATTTTAACCCGTGCTAG,0.315
GACGATTTCGGGACTGGAAACGTGCTA,-0.00675
TTTTCATTTTCTTTAACTCAGTGCTAG,2.73

# Study 2
# Target: Sal-like protein 4, full length isoform A (SALL4, Homo sapiens, UniProt Q9UJQ4, residues 1-1053)
# Sequence of UniProt Q9UJQ4 (whole entry, looked up): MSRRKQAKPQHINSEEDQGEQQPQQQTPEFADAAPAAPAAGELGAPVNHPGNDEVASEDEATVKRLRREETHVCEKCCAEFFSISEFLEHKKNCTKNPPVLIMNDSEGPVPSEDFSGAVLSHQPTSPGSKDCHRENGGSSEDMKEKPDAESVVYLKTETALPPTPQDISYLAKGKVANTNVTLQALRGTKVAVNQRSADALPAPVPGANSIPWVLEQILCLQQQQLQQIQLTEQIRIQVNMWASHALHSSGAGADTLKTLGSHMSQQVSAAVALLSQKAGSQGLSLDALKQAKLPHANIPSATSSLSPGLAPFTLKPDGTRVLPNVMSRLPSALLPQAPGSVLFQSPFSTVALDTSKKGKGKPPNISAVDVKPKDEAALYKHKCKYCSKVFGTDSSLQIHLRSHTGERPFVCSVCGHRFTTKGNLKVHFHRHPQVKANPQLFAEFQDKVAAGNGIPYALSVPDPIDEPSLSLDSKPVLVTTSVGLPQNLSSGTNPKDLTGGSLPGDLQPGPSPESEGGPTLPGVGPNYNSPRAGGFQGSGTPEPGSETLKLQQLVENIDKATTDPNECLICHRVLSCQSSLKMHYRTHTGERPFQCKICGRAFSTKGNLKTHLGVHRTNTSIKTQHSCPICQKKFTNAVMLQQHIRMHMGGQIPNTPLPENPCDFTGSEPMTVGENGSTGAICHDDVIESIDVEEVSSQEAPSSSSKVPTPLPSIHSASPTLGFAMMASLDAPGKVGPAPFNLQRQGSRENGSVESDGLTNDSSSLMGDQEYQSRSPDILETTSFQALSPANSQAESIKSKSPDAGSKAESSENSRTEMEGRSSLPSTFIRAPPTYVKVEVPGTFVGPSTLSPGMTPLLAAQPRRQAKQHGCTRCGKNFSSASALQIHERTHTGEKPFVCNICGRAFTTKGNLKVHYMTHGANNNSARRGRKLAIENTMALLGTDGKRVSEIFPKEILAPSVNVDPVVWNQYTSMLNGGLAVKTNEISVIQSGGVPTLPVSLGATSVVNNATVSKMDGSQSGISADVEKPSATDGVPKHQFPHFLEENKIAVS
# Method: universal PBM
# Form: double-stranded DNA, one strand shown
# Medium: in vitro
# Concentration: 600 nM
# Notes: 8-mer, flanks averaged, mean of replicates
# Reading: higher = stronger binding
Sequence,E-score
GAAAGTGA,0.172
AGGCTCGG,-0.17
GTTAAGGA,0.0892
CAAAGACG,-0.0572
AATTGTGC,0.151
ACCCACCT,-0.254
ATGGGCGC,-0.328
AAGACCGT,-0.183
GGCAGGTA,-0.213
CCCCTGTA,-0.0826
GGGCCACA,-0.191
ATTTGTGC,0.153
AAGTGGGT,-0.0983

# Study 3
# Target: CCND1, cyclin fold, Cln2 fusion (human)
# Method: yeast growth competition, sequencing
# Medium: yeast
# Notes: strong parent motif
# Relative to: not given
# Reading: higher = stronger binding
# Starting sequence: CCP110 docking peptide (human); EKVKRRLDLDIDG
Variant,normalised enrichment score
L9F,2.55
L9A,0.0252
K4A,0.673
D10A,0.68
K2A,0.432
D8A,-0.17
V3A,0.749

# Mixed results
Molecule,target,assay,system,setting,scale,measurement,value
"PhoQ, residues 284 288 289 292 302 303 GLASVI","PhoP, residues 12 14 15 18 19 NFCKL (Escherichia coli, UniProt P23836)","Sort-seq, measured: YFP reporter",E. coli,"PhoQ-PhoP variant library, with: 10 µM Mg2+","relative to: high Mg2+ state, higher = stronger signaling",fold induction,12.6

# A few entries again (study 1):
Sequence,fitted relative affinity [z-score]
GACGATTTCGGGACTGGAAACGTGCTA,-0.00675
TTAGGTATCCTTTCCCTTTAGTGCTAG,0.576
TTAGGTCTCCTGTTCCTTTAGTGCTAG,0.149
